Measured values of several laboratories.
Organism: Staphylococcus aureus

Structure (SMILES) | assay | test system | conditions | MIC
C=C1CN(C(=N)N)CC2Nc3c(F)cc(Br)cc3C12CCNS(=O)(=O)c1ccc(Cl)cc1.O=C(O)C(F)(F)F (centres unmarked) |  | NRS-100, community-acquired MRSA |  | 2 µg/mL
CC[C@H]1OC(=O)[C@H](C)[C@@H](OC(=O)Cc2c(F)cc([N+](=O)[O-])cc2F)[C@H](C)[C@@H](O[C@@H]2O[C@H](C)C[C@H](N(C)C)[C@H]2O)[C@](C)(OC)C[C@@H](C)C(=O)[C@H](C)[C@@H](O)[C@]1(C)O | microbial growth | BAA976 |  | 0.5 µg/mL
O=C(Nc1ccc(Oc2ccccc2)cc1)Nc1ccc(Cl)c(C(F)(F)F)c1 | microbial growth | NCTC8325 |  | 0.5 µM
CCCCCCn1cc[n+](CCCCOc2cc(OCCCC[n+]3ccn(CCCCCC)c3)cc(OCCCC[n+]3ccn(CCCCCC)c3)c2)c1.[Br-].[Br-].[Br-] |  | SH1000 MSSA |  | 2 µM
CC[C@H](C)[C@H](N)C1=N[C@H](C(=O)N[C@@H](CC(C)C)C(=O)N[C@H](CCC(=O)O)C(=O)N[C@H](C(=O)N[C@H]2CCCCNC(=O)[C@H](CC(N)=O)NC(=O)[C@@H](CC(=O)O)NC(=O)[C@H](Cc3c[nH]cn3)NC(=O)[C@@H](Cc3ccccc3)NC(=O)[C@H]([C@@H](C)CC)NC(=O)[C@@H](CCCN)NC2=O)[C@@H](C)CC)CS1 |  | USA300 methicillin-resistant | 18 h, 37 °C, 0.3 mM ZnSO4 LB | 2 µg/mL
CCCCCCCCCCn1cc[n+](CCCCOc2cc(OCCCC[n+]3ccn(CCCCCCCCCC)c3)cc(OCCCC[n+]3ccn(CCCCCCCCCC)c3)c2)c1.[Br-].[Br-].[Br-] |  | CA-MRSA USA300-0114 |  | 1 µM
CC[C@H]1OC(=O)[C@H](C)[C@@H](OC(=O)Cc2c(F)cccc2F)[C@H](C)[C@@H](O[C@@H]2O[C@H](C)C[C@H](N(C)C)[C@H]2O)[C@](C)(OC)C[C@@H](C)C(=O)[C@H](C)[C@@H](O)[C@]1(C)O | microbial growth | BAA976 |  | 2 µg/mL
CC[C@H](C)[C@H](N)C(=O)N1CCC[C@H]1C(=O)N[C@@H](Cc1ccccc1)C(=O)N[C@@H](Cc1c[nH]c2ccccc12)C(=O)N[C@@H](CCCNC(=N)N)C(=O)N[C@@H](Cc1c[nH]c2ccccc12)C(=O)N[C@@H](CC(C)C)C(=O)N[C@@H](CC(C)C)C(=O)N[C@@H](CCC(N)=O)C(=O)N[C@@H](CCCNC(=N)N)C(=O)N[C@@H](CC(C)C)C(=O)N1CCC[C@H]1C(=O)NCC(=O)O | broth microdilution | ATCC 29213 | 16 h, 37 °C, cation-adjusted Mueller-Hinton broth | 32 µg/mL
N=C(N)NCCC[C@@H]1NC(=O)[C@H](CCCNC(=N)N)NC(=O)[C@@H](CCCNC(=N)N)NC(=O)[C@@H](CCCNC(=N)N)NC(=O)[C@@H](C(c2ccccc2)c2ccccc2)NC(=O)[C@H](Cc2c[nH]c3ccccc23)NC(=O)[C@@H](C(c2ccccc2)c2ccccc2)NC1=O |  | ATCC 29213, MSSA |  | 4 µg/mL
CC[C@H](C)[C@H](NC(=O)[C@H](CCN)NC(=O)CCCCCCCCCCCNC(=O)CCCCCOC(=O)c1cn(C2CC2)c2cc(N3CCNCC3)c(F)cc2c1=O)C(=O)N[C@@H](CCN)C(=O)N[C@H](Cc1ccccc1)C(=O)N[C@@H](CC(C)C)C(=O)N[C@@H](CCN)C(=O)N[C@@H](C(=O)N[C@@H](CC(C)C)C(=O)N[C@@H](CO)C(N)=O)C(C)C |  |  |  | 5.04 µg/mL
CN[C@H](CC(C)C)C(=O)N[C@H]1C(=O)N[C@@H](CC(N)=O)C(=O)N[C@H]2C(=O)N[C@H]3C(=O)N[C@H](C(=O)N[C@H](C(=O)NCC(N)=O)c4cc(O)cc(O)c4-c4cc3ccc4O)[C@H](O)c3ccc(c(Cl)c3)Oc3cc2cc(c3O[C@@H]2O[C@H](CO)[C@@H](O)[C@H](O)[C@H]2O[C@H]2C[C@](C)(NCc3ccc(OCc4cn(CC(=O)N[C@H](C(=O)N[C@@H](CCN)C(=O)N[C@H]5CCNC(=O)[C@H]([C@@H](C)O)NC(=O)[C@H](CCN)NC(=O)[C@H](CCN)NC(=O)[C@H](CC(C)C)NC(=O)[C@@H](CC(C)C)NC(=O)[C@H](CCN)NC5=O)[C@@H](C)O)nn4)c(OC)c3)[C@H](O)[C@H](C)O2)Oc2ccc(cc2Cl)[C@H]1O | broth microdilution | MRSA USA300, cation-adjusted Mueller-Hinton broth | 20 to 24 h, 37 °C, 0.002% polysorbate 80 | 0.25 µg/mL
CCCCCC[N+](C)(C)CCCCCCCCOc1cc(OCCCCCCCC[N+](C)(C)CCCCCC)cc(OCCCCCCCC[N+](C)(C)CCCCCC)c1.[Br-].[Br-].[Br-] |  | CA-MRSA USA300-0114 |  | 0.5 µM
CC[C@H]1OC(=O)[C@H](C)[C@@H](OC(=O)Cc2cccc3ccccc23)[C@H](C)[C@@H](O[C@@H]2O[C@H](C)C[C@H](N(C)C)[C@H]2O)[C@](C)(OC)C[C@@H](C)C(=O)[C@H](C)[C@@H](O)[C@]1(C)O |  | ATCC 43300 MRSA |  | 32 µg/mL
CCOc1c(NC(=O)c2ccc(NC(=O)c3ccc(NC(=O)[C@H](Cc4c[nH]nn4)NC(=O)c4ccc(NC(=O)/C(C)=C/c5ccc(O)cc5)cc4)cc3)c(OCC)c2O)ccc(C(=O)O)c1O | broth microdilution | ciprofloxacin-sensitive |  | 0.031 µg/mL
CCCCCCCCCC(=O)Oc1c(C)c(OC)c2c(c1C)OC(=O)C(CCCCCCCC)C2(O)C=Cc1ccccc1 (centres unmarked) | microbial growth, broth dilution | ATCC25923 |  | 5000 µg/mL
C/C(=C\c1ccc(O)cc1)C(=O)Nc1ccc(C(=O)N[C@@H](Cc2c[nH]nn2)C(=O)Nc2ccc(C(=O)Nc3ccc(C(=O)Nc4ccc(C(=O)O)cc4)c(O)c3)cc2)cc1 | broth microdilution | ciprofloxacin-resistant |  | 32 µg/mL
CCCCCCn1cc[n+](CCCCCCOc2cc(OCCCCCC[n+]3ccn(CCCCCC)c3)cc(OCCCCCC[n+]3ccn(CCCCCC)c3)c2)c1.[Br-].[Br-].[Br-] |  | HA-MRSA ATCC 33591 |  | 0.5 µM
CC[C@H]1OC(=O)[C@H](C)[C@@H](OC(=O)Cc2cccc([N+](=O)[O-])c2)[C@H](C)[C@@H](O[C@@H]2O[C@H](C)C[C@H](N(C)C)[C@H]2O)[C@](C)(OC)C[C@@H](C)C(=O)[C@H](C)[C@@H](O)[C@]1(C)O |  | BAA-977 |  | 0.5 µg/mL
C#CCOc1ccc(CN[C@@]2(C)C[C@H](O[C@H]3[C@H](Oc4c5cc6cc4Oc4ccc(cc4Cl)[C@@H](O)[C@@H](NC(=O)[C@@H](CC(C)C)NC)C(=O)N[C@@H](CC(N)=O)C(=O)N[C@H]6C(=O)N[C@H]4C(=O)N[C@H](C(=O)N[C@H](C(=O)O)c6cc(O)cc(O)c6-c6cc4ccc6O)[C@H](O)c4ccc(c(Cl)c4)O5)O[C@H](CO)[C@@H](O)[C@@H]3O)O[C@@H](C)[C@H]2O)cc1OC | broth microdilution | MSSA ATCC 29213, cation-adjusted Mueller-Hinton broth | 20 to 24 h, 37 °C, 0.002% polysorbate 80 | 2 µg/mL
CCOc1c(NC(=O)c2ccc(NC(=O)[C@H](Cc3c[nH]nn3)NC(=O)c3ccc(NC(=O)/C(C)=C/c4ccc(O)cc4)cc3)cc2)ccc(C(=O)Nc2ccc(C(=O)O)c(O)c2OC)c1O | broth microdilution | ciprofloxacin-resistant |  | 0.063 µg/mL
CCCCCCCC[N+](C)(C)CCCCCCCCCCOc1cc(OCCCCCCCCCC[N+](C)(C)CCCCCCCC)cc(OCCCCCCCCCC[N+](C)(C)CCCCCCCC)c1.[Br-].[Br-].[Br-] |  | SH1000 MSSA |  | 2 µM
CC[C@H]1OC(=O)[C@H](C)[C@@H](O[C@H]2C[C@@](C)(OC)[C@@H](O)[C@H](C)O2)[C@H](C)[C@@H](O[C@@H]2O[C@H](C)C[C@H](N(C)C)[C@H]2O)[C@](C)(OC)C[C@@H](C)C(=O)[C@H](C)[C@@H](O)[C@]1(C)O |  | BAA-977 |  | 8 µg/mL
CCCCCCCC[C@@H]1NC(=O)[C@@H](CCCN)NC(=O)[C@@H](NC(=O)[C@@H](NC(=O)[C@@H](CCC(=O)O)NC(=O)[C@H](CC(C)C)NC(=O)[C@@H]2CSC([C@@H](N)[C@@H](C)CC)=N2)[C@@H](C)CC)CCCCNC(=O)[C@H](CC(N)=O)NC(=O)[C@@H](CC(=O)O)NC(=O)[C@H](Cc2c[nH]cn2)NC(=O)[C@@H](Cc2ccccc2)NC1=O |  | ATCC 29213 | with: EDTA 0.3 mM | 16 µg/mL

Excerpt of the above:
Structure (SMILES) | assay | test system | conditions | MIC
CC[C@H](C)[C@H](N)C(=O)N1CCC[C@H]1C(=O)N[C@@H](Cc1ccccc1)C(=O)N[C@@H](Cc1c[nH]c2ccccc12)C(=O)N[C@@H](CCCNC(=N)N)C(=O)N[C@@H](Cc1c[nH]c2ccccc12)C(=O)N[C@@H](CC(C)C)C(=O)N[C@@H](CC(C)C)C(=O)N[C@@H](CCC(N)=O)C(=O)N[C@@H](CCCNC(=N)N)C(=O)N[C@@H](CC(C)C)C(=O)N1CCC[C@H]1C(=O)NCC(=O)O | broth microdilution | ATCC 29213 | 16 h, 37 °C, cation-adjusted Mueller-Hinton broth | 32 µg/mL
N=C(N)NCCC[C@@H]1NC(=O)[C@H](CCCNC(=N)N)NC(=O)[C@@H](CCCNC(=N)N)NC(=O)[C@@H](CCCNC(=N)N)NC(=O)[C@@H](C(c2ccccc2)c2ccccc2)NC(=O)[C@H](Cc2c[nH]c3ccccc23)NC(=O)[C@@H](C(c2ccccc2)c2ccccc2)NC1=O |  | ATCC 29213, MSSA |  | 4 µg/mL
